# Results of several laboratories.
# Every numbered part comes from another study and shows a few of its results, in no order. Positions count from the first letter of the parent shown.
# UniProt P62253, sequence (whole entry, looked up): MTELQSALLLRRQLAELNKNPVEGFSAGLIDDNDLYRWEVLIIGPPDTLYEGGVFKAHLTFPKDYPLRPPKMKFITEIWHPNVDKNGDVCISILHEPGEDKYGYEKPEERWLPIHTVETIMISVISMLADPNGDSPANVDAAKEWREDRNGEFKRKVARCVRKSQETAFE
# UniProt P62837, sequence (whole entry, looked up): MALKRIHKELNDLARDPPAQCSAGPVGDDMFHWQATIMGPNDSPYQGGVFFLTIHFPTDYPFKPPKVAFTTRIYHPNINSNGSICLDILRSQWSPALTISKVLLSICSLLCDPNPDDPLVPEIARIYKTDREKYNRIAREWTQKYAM
# UniProt Q9Y2X8, sequence (whole entry, looked up): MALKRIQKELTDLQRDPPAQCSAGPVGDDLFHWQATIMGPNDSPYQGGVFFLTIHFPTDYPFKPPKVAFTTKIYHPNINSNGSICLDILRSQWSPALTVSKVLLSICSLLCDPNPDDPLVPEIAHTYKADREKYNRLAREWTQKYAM
# UniProt Q712K3, sequence (whole entry, looked up): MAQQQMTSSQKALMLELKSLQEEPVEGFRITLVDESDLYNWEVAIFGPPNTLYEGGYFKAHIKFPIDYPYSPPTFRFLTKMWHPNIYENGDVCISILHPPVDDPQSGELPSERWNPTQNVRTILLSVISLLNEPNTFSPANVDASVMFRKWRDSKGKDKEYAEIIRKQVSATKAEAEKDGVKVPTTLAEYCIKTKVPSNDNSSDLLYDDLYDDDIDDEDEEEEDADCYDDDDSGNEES
# UniProt Q8N2K1, sequence (whole entry, looked up): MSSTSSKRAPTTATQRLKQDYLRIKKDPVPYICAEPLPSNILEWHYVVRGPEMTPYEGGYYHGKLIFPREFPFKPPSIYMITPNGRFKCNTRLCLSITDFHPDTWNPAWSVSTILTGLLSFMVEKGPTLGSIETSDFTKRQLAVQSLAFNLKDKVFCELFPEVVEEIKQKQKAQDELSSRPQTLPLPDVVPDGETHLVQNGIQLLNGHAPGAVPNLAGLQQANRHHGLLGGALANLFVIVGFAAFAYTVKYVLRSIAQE

# Set 1 — technique: universal PBM; molecule type: double-stranded DNA, one strand shown; medium: in vitro; tested at: not given; reading: higher = stronger binding
# Target: Sal-like protein 4, full length isoform B (SALL4, Homo sapiens, UniProt Q9UJQ4-2, residues 1-616)
# Setting: 8-mer, flanks averaged, mean of replicates
Strand,E-score
ACCCATTA,0.0898
ACGCGGTG,-0.271
GGGGTCAA,-0.00188
GATCGGAC,-0.113
CCTCAGTA,-0.0891
ATCAAAAA,0.327
CAATGTCA,0.21
GGGCTCAA,-0.164
ACTCTCAT,0.0839
GGTGCCCA,-0.227
CTGGCCCC,-0.401
GTCTCTGA,-0.148
CACTTTCG,0.17
ATTGACGA,0.22
CCGAGCGC,-0.264
AAGACATT,0.112

# Set 2 — technique: RNA Bind-n-Seq; molecule type: RNA; medium: in vitro; tested at: 365 nM; reference: no-protein control; reading: higher = stronger binding
# Target: RNA binding protein fox-1 homolog 2, RRM domain, GST-SBP tag (RBFOX2, Homo sapiens, UniProt O43251-10, residues 100-194)
# Setting: natural RNA segment, single round, ends assumed
# Constant ends, left off below: GGGAGUUCUACAGUCCGACGAUC … UGGAAUUCUCGGGUGCCAA
# Construct (chain): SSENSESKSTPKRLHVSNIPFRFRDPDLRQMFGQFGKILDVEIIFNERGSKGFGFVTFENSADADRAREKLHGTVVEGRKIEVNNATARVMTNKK
Strand,RBNS enrichment (R)
CCUGGCUUGUUGAAAGGUGGCUUUAGCUGUGUGCUGUGUACCUGCUUACGUGGCCUGCUGUCCUCUGUGUGAUUAGGAGGGUUUCUGCUGGCCCUGCAGCUUGCUUCCCU,0.511
CCCAGAGGGACUAUGAUCUGAUGGCCUCUAGGUGUUGUUUUGUGCAAUAUACAGCCCCAGGUAGGGAGGGGAGAGUAUGAGGAGGGUGACUGGCAGCUUCUCCUCCAGAC,1.25
GUCCACCGAAUGUCACUCACUGAGCUGGGGUUGCUUUGUCUGUCUGAUUCAAAAUGUGUCCACACUUCGUAGAGUCUAGAAUACUGGACUGUAGAGAAACUACUUUGAAC,0.459
AGCAGCAAUUGCAGAGUGACCAGUGAACUUUAUGGACUUAGCUGACAACUCCUAGAACAUGUGCACCCAUGCAUAUGAUGACAGAUGUCUGCUUUUAAUGCAGCUGUGGA,0.357
UUAGGAGCUGAUAUUAUCAGUUGGAAUUAAGAGAACUCCAGAGGUUUCCAUUUCAAACAAAAUUUUAGAAAUUGGUUUGGUGUUCAGCUUCACAUUUCAUUUUUUCUUAG,0.997
GGAUCACGAGCCCCUACUUCCCAAAGAAUAAAUGGGCUUAGUGAUCAAGGUUCUUCAAGGGGUCUUUCUCCCUCUGAGAUAUUCAAGGCAAAUGUCUGGAUGUCGCAUUU,0.227
ACCAGUUAACAGGUUAUGAUGAGCUGCUCCACGUCUACAGUCCAGUGCGUGGGAAGACAUGCCCCAGGCCCAGCCCUGACCACAUGUGUUGCUAAUUCCUGUCUGGUUCC,0.343
UAGUGGCUAGCAUUUAUAGACCUGUUGUGUUUGUUUUGUUUCUUACUGACUGAUAGUAAAACUCAUGGAAGAACUCAAGAGAUGUCGAGACCAAAAGUCCCCAGUGACAC,0.401
UGCUUCCUUUCUUUAUCCCUGUUUGUAAACACGGCGCCUCCCUUAAUGUGGCACCAUGCAGAUGUGACUUGAUUUGGCUGAGAGCUACCUUUCCUGAAGUAUGCACCCUA,1.32
CUAGCAUUCCAUACAAAAUUGUUUCCUAUAAGCAUUCCUUUUAUUCUCUAUUCUAUCCUGGGUCUGCCUCAACCGUGAGAUAGGAGAGUCUCUGGUACUAGCUGCUGUAG,0.806
CGAGCAAAAGACGAGUGAUGCCAUUUGGGCUUAUUUAGAAAAAAGGGUAAGCUAGAGAGAAAAAGAAAGAACUGUCCGUCCCCCUUCCGCCUUCUCCCUUCUCUCACCCC,0.536
AAAAAUCAAUUAAAUCAUUGUGUUCAACAGGAAUAUUUAAAAUAUUCUGCAUGAAUCCUGUGGCUGUCUUAUUUUAAAUAGCUGCUGCUGUGGGAUUAUAUUUUUUUUCC,10.3

# Set 3 — Molecule: B1 (RNF11 RING domain); technique: yeast two-hybrid; medium: yeast; setting: mostly zero background; reference: not given; reading: higher = stronger interaction
# B1: RNF11 RING domain (UniProt Q9Y3C5); chain RDGSEKKIRECVICMMDFVYGDPIRFLPCMHIYHLDCIDDWLMRSFTCPSCMEPVDAALLSS
target,lacZ reporter activity
UBE2G1 UBC core domain (UniProt P62253),0
UBE2D4 UBC core domain (UniProt Q9Y2X8),17100
UBE2R2 UBC core domain (UniProt Q712K3),0
UBE2J2 UBC core domain (UniProt Q8N2K1),0
UBE2D2 UBC core domain (UniProt P62837),17900

# Set 4 — technique: DHFR PCA, deep sequencing; medium: yeast; together with: (+)-ABA 1.4 µM; reference: wild-type fitted maximum; reading: higher = stronger binding
# Target: ABI1, truncated, D143A, DHFR fusion (Arabidopsis thaliana)
# Setting: methotrexate growth selection, single substitutions
# Parent: PYL1, truncated, DHFR fusion (Arabidopsis thaliana); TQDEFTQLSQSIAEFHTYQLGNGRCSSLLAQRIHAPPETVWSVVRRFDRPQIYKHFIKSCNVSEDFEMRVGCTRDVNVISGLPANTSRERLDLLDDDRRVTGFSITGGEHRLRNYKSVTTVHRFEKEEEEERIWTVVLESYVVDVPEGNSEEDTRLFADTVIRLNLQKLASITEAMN
Variant,relative binding score
I105D,-0.496%
R88F,42.1%
R88V,63.9%
A170N,-13%
E89N,-11.8%
E131Q,69.7%
R45K,10.2%
C60T,27.4%
Q19I,37.9%
V78M,51.9%
R49T,50.3%
R113E,27.7%
E109Y,10.6%
Q51E,47%
I33H,6.44%
I79L,8.61%
D48N,23.7%
V100Y,-2.35%
I57P,0.677%
R69D,22.1%

# Set 5 — target: CCNA2, cyclin fold, Cln2 fusion (human); technique: yeast growth competition, sequencing; medium: yeast; setting: strong parent motif; reference: not given; reading: higher = stronger binding
# Parent: PKN2 docking peptide (human); VSAVRKLDFSDTM
Variant,normalised enrichment score
A3E,-0.14
F9L,1.94
S2D,4.11
S2V,4.55
L7S,0.281
V4K,6.06
R5T,1.78
L7G,0.108
D11F,4.81
D8V,5.04
A3W,3.95
D8E,4.64
L7R,0.416
D8C,5.25
D8H,4.8
L7N,-0.18
T12F,5.25
L7A,0.287

# Set 6 — technique: protein-binding microarray; molecule type: double-stranded DNA, one strand shown; medium: in vitro; tested at: 940 nM top; setting: 60-bp whole probe; together with: salmon DNA 0.4 mg/ml; reference: random background probes; reading: higher = stronger binding; constant ends, left off below: GCCTAGCAC … GTCTTGATTCGCTTGACGCTGCTG
# Target: Interferon regulatory factor 5, full length, phosphomimetic (IRF5, Homo sapiens, UniProt Q13568-2, residues 1-514, S451D/S453D/S456D/S462D)
Strand,fitted relative affinity [z-score]
ACACGGCTCTAAACTCATGTAGTGCTA,0.0383
TGCTTTCTCTTTCACTACTCGTGCTAG,4.05
AGCTGTTTGAGAAATCAGATGGTGCTA,0.0523
TTAGGTATCCTTTGCCTTTAGTGCTAG,0.206
TTCGGTTTCGGACTGGGTTAGTGCTAG,5.85
TCATGCTTGGGTCTGGGACTGTGCTAG,-0.018
TTAGATTTCTGGACTGGATTAGTGCTA,-0.0439
GACGAACTGTGTATCGAGACGTGCTAG,0.393
GACGGTCTCGGTTTCTGGACGTGCTAG,4.84
GACGGTTTCGGTATCGCGACGTGCTAG,14.2
TTAGATATCGGGACTGGATAAGTGCTA,0.0184
TTAGATTTCTGTTTCGATTAGTGCTAG,5.05
TTGGGTCTCGGTATCGGTTAGTGCTAG,6.89
TTTGATATCGGGTATCGATTAGTGCTA,3.23

# Excerpt of the above (set 5):
Variant,normalised enrichment score
L7G,0.108
D11F,4.81
D8V,5.04
A3W,3.95
D8E,4.64
L7R,0.416
D8C,5.25
